{"data": "Measured values of several laboratories", "note": "Each numbered part is a random draw from the data of one study; scales do not carry over between parts. “And” joins repeats or separate records; there may be more than shown.", "sequence of UniProt P51956 (whole entry, looked up)": "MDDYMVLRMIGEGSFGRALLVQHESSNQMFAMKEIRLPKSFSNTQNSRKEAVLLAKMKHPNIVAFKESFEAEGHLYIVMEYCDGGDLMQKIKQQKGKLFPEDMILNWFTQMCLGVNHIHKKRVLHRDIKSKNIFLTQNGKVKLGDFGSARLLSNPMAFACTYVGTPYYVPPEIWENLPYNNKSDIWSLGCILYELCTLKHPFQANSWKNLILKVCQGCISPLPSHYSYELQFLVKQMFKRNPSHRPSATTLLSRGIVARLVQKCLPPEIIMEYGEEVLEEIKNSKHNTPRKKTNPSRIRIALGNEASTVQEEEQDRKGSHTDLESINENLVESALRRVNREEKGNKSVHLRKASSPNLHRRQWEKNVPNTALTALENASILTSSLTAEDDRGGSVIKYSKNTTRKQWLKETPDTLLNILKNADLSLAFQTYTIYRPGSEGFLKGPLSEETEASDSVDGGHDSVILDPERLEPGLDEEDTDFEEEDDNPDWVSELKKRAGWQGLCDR", "sequence of UniProt P42685 (whole entry, looked up)": "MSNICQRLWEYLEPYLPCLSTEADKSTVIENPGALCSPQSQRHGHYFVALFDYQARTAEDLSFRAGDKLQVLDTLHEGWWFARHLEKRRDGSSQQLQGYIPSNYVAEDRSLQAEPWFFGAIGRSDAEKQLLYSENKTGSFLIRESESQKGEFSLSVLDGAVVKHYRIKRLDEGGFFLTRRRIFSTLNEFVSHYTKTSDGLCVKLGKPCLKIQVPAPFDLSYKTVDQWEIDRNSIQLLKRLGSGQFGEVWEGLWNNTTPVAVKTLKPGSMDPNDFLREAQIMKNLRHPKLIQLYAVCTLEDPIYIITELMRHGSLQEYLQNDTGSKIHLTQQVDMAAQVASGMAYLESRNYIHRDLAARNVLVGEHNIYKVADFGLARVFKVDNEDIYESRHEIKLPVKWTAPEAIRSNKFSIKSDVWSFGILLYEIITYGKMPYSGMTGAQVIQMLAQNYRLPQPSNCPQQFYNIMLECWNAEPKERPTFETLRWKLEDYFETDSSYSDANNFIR", "sequence of UniProt Q15349 (whole entry, looked up)": "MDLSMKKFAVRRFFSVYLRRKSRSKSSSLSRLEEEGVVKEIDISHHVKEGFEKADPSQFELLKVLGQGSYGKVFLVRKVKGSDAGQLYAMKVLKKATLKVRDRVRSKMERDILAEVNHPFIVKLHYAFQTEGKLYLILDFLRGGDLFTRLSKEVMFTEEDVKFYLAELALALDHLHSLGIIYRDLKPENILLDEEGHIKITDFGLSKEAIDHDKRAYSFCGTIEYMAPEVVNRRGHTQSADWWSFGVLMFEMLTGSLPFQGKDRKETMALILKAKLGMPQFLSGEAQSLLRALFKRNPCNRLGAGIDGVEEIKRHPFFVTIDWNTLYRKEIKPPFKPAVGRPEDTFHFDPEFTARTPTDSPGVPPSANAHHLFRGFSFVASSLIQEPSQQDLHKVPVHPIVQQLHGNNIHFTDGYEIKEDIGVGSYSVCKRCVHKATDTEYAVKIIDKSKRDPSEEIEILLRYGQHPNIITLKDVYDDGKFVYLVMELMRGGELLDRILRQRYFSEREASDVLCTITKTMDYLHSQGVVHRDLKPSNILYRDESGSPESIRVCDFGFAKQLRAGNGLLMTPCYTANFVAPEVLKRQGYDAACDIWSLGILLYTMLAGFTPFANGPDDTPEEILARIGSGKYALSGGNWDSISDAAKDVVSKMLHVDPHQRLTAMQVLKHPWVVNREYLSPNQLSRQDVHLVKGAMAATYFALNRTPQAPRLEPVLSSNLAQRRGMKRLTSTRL", "sequence of UniProt Q15759 (whole entry, looked up)": "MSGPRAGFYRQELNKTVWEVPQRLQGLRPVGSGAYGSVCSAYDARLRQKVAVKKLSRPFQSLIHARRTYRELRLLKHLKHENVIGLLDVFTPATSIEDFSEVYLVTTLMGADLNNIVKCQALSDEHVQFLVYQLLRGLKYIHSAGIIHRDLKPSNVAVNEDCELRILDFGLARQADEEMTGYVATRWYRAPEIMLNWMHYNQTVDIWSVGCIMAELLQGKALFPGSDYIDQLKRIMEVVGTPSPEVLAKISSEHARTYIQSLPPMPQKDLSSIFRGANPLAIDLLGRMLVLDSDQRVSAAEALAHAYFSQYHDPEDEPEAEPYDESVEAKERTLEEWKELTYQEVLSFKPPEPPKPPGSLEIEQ", "sequence of UniProt Q15418 (whole entry, looked up)": "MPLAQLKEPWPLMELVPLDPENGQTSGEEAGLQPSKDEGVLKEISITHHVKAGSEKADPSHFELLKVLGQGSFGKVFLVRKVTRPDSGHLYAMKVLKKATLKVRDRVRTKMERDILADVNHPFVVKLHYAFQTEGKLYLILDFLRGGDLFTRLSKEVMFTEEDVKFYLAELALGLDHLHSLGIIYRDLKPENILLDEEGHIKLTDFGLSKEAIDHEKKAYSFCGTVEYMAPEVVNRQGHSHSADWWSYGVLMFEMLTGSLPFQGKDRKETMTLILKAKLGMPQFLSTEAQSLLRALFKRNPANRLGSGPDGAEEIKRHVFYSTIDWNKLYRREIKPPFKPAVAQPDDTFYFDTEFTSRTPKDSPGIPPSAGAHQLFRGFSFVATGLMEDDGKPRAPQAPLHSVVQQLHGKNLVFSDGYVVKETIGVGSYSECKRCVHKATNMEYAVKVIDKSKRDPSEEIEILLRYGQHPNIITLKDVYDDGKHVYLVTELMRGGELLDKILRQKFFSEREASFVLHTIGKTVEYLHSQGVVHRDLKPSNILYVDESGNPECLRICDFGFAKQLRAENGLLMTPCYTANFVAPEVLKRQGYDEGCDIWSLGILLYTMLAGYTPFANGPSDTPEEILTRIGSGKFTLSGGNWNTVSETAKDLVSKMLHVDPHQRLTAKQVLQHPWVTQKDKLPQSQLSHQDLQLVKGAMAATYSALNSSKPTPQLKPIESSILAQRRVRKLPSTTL", "sequence of UniProt Q02750 (whole entry, looked up)": "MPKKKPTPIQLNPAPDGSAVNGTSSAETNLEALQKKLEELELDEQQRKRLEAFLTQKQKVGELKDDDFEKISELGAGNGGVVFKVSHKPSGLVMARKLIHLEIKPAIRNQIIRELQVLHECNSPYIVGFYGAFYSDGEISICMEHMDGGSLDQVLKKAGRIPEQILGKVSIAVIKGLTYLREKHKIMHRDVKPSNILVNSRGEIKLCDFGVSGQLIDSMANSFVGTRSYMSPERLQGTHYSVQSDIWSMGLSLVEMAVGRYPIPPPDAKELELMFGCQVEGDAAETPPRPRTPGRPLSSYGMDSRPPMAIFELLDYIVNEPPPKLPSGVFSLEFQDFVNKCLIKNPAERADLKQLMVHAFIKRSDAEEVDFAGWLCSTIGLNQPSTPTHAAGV", "sequence of UniProt P42679 (whole entry, looked up)": "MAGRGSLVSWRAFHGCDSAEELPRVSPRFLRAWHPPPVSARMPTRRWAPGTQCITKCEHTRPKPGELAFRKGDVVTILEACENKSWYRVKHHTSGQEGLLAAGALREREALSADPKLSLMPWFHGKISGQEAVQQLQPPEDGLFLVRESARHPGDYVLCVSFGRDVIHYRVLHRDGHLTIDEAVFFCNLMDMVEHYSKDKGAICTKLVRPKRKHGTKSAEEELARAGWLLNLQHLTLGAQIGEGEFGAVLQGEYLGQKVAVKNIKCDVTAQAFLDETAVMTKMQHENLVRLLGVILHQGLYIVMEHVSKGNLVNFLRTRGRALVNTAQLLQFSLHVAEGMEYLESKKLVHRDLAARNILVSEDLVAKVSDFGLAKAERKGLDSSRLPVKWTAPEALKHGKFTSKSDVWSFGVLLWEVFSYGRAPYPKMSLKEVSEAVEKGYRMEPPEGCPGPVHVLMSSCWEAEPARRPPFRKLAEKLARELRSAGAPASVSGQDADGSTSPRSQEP", "sequence of UniProt P50750 (whole entry, looked up)": "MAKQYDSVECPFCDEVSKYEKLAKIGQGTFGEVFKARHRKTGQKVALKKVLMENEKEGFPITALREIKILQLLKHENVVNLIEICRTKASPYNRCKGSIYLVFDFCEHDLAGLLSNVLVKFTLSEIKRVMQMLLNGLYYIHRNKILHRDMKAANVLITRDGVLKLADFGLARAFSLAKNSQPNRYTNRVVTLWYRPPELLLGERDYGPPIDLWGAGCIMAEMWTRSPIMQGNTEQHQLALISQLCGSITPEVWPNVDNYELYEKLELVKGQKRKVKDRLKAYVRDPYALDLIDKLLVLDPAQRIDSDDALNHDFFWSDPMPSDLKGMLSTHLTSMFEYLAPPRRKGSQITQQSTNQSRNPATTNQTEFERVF", "sequence of UniProt P28482 (whole entry, looked up)": "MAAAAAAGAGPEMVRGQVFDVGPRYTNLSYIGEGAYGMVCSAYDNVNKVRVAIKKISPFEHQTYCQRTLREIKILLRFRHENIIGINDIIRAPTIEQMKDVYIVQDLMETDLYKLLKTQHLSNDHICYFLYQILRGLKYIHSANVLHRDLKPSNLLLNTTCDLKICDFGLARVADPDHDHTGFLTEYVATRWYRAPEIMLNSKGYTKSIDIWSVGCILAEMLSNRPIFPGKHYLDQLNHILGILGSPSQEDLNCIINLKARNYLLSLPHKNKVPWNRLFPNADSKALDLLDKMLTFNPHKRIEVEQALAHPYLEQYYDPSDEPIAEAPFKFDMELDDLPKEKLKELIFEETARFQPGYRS", "sequence of UniProt P31751 (whole entry, looked up)": "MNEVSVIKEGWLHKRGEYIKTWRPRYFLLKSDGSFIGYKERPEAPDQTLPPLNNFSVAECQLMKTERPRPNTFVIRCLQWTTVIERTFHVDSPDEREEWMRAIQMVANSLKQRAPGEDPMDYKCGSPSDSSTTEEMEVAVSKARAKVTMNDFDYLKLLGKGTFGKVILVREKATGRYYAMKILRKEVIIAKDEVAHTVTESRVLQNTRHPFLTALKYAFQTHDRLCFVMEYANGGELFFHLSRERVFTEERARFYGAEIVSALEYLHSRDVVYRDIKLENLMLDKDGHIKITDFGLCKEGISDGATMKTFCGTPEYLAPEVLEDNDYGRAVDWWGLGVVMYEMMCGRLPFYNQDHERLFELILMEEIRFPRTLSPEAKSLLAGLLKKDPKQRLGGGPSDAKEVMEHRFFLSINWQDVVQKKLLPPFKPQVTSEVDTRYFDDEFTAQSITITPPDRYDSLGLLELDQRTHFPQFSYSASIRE"}
{"data": "Sample 1", "SMILES": "COCCOc1nc(-c2ccc(Cl)nc2)nc2c1CN(C(=O)c1ncn3ccccc13)CC2", "concentration": "0.1 µM"}
{"target": "CDC42BPG (Homo sapiens, UniProt Q6DT37)", "technique": "competition binding", "remaining binding [%]": 100}
{"target": "Ribosomal protein S6 kinase alpha-2, N-terminal kinase domain (RPS6KA2, Homo sapiens, UniProt Q15349)", "observed": "cell-free assay", "technique": "competition with immobilised ligand", "remaining binding [%]": 100}
{"target": "FRK (Homo sapiens, UniProt P42685)", "observed": "cell-free assay", "technique": "competition with immobilised ligand", "remaining binding [%]": 100}
{"target": "Ribosomal protein S6 kinase alpha-1, N-terminal kinase domain (RPS6KA1, Homo sapiens, UniProt Q15418)", "observed": "cell-free assay", "technique": "competition with immobilised ligand", "remaining binding [%]": 100}
{"target": "NEK3 (Homo sapiens, UniProt P51956)", "observed": "cell-free assay", "technique": "competition with immobilised ligand", "remaining binding [%]": 100}
{"target": "Tyrosine-protein kinase ABL1, phosphorylated (ABL1, Homo sapiens, UniProt P00519, Q252H)", "observed": "cell-free assay", "technique": "competition with immobilised ligand", "remaining binding [%]": 81}
{"target": "MATK (Homo sapiens, UniProt P42679)", "observed": "cell-free assay", "technique": "competition with immobilised ligand", "remaining binding [%]": 100}
{"target": "PAK1 (Homo sapiens, UniProt Q13153)", "observed": "cell-free assay", "technique": "competition with immobilised ligand", "remaining binding [%]": 100}
{"data": "Sample 2", "cell line": "A-375", "concentration": "100 µM", "time": "18 h"}
{"Structure (SMILES)": "c1cnc2cc3c(cc2n1)[C@@H]1CNC[C@H]3C1", "viability": "96.2%"}
{"Structure (SMILES)": "Cc1cccc(Nc2ccncc2S(=O)(=O)NC(=O)NC(C)C)c1", "viability": "102%"}
{"Structure (SMILES)": "COc1cc(CNC(=O)CCCC/C=C/C(C)C)ccc1O", "viability": "36.9%"}
{"Structure (SMILES)": "O=C(c1ccc(F)cc1)C1CCN(CCn2c(=O)[nH]c3ccccc3c2=O)CC1", "viability": "96.5%"}
{"Structure (SMILES)": "Nc1nc2[nH]cc(CCc3ccc(C(=O)O)cc3)c2c(=O)[nH]1", "viability": "99.2%"}
{"Structure (SMILES)": "OCCN1CCN(CC/C=C2/c3ccccc3Sc3ccc(C(F)(F)F)cc32)CC1", "viability": "7.87%"}
{"Structure (SMILES)": "Cc1nc(Nc2ccc(F)cc2)nc(N2CCc3ccccc3C2C)c1C (centres unmarked)", "viability": "15.6%"}
{"Structure (SMILES)": "CN1CCc2nc(C(=O)N[C@@H]3C[C@@H](C(=O)N(C)C)CC[C@@H]3NC(=O)C(=O)Nc3ccc(Cl)cn3)sc2C1", "viability": "104% and 89.7%"}
{"data": "Sample 3", "SMILES": "O=C1NC(=O)/C(=C/c2ccc3c(c2)OC(F)(F)O3)S1", "observed": "enzyme activity", "mode": "inhibitor", "concentration": "0.5 µM", "reference": "control"}
{"target": "CLK4 (Homo sapiens, UniProt Q9HAZ1)", "remaining activity": "88.8%"}
{"target": "Cyclin-dependent kinase 9, with cyclin K (CDK9, Homo sapiens, UniProt P50750)", "remaining activity": "93.5%"}
{"target": "CLK3 (Homo sapiens, UniProt P49761)", "remaining activity": "96.8%"}
{"target": "PLK3 (Homo sapiens, UniProt Q9H4B4)", "remaining activity": "92.4%"}
{"target": "AKT2 (Homo sapiens, UniProt P31751)", "remaining activity": "96.2%"}
{"target": "DDR2 (Homo sapiens, UniProt Q16832)", "remaining activity": "90.1%"}
{"target": "Myosin-IIIb (MYO3B, Homo sapiens, UniProt Q8WXR4)", "remaining activity": "87.9%"}
{"target": "MAPK1 (Homo sapiens, UniProt P28482)", "remaining activity": "85.7%"}
{"target": "CAMK4 (Homo sapiens, UniProt Q16566)", "remaining activity": "101%"}
{"target": "DCLK2 (Homo sapiens, UniProt Q8N568)", "remaining activity": "99.7%"}
{"target": "MAP2K1 (Homo sapiens, UniProt Q02750)", "remaining activity": "95.6%"}
{"target": "NEK3 (Homo sapiens, UniProt P51956)", "remaining activity": "92.5%"}
{"target": "MAPK11 (Homo sapiens, UniProt Q15759)", "remaining activity": "95.7%"}
{"target": "MARK4 (Homo sapiens, UniProt Q96L34)", "remaining activity": "97.8%"}
{"data": "Sample 4", "species": "human", "sample": "microsomes or S9", "concentration": "2 µM", "time": "0.5 h"}
{"SMILES": "CCOC(=O)c1ccc(NC(=O)c2ccc(-n3nncc3C)cc2)cc1", "remaining compound": "5.48%"}
{"SMILES": "O=C(O)c1nn(-c2ccccc2)nc1-c1nn(-c2ccccc2)nc1C(=O)O", "remaining compound": "59.8%"}
{"SMILES": "Cc1nc2c3ccccc3nn2c(C)c1CC(=O)NCCc1c[nH]cn1", "remaining compound": "> 100%"}
{"SMILES": "Cc1ccccc1-c1nc2ccccc2cc1Cn1c2ccc(C(N)=O)cc2c2cnc(N)nc21", "remaining compound": "14.2%"}
{"SMILES": "Cc1nc2c(c(C)c(C)n2CCN2CCCC2)c(-c2ccc(Cl)cc2)c1[C@H](OC(C)(C)C)C(=O)O", "remaining compound": "> 100%"}
